Experimental data collected from several papers.
Parts stem from different laboratories: compare values within a part only. Changes are numbered by the printed parent chain.

Series 1 — technique: protein-binding microarray; molecule type: double-stranded DNA, one strand shown; sample: in vitro; tested at: 2200 nM top; setting: 60-bp whole probe; together with: salmon DNA 0.4 mg/ml; relative to: random background probes; direction: higher = stronger binding; shared flanks, not repeated: GCCTAGCAC … GTCTTGATTCGCTTGACGCTGCTG
Target: Interferon regulatory factor 7, full length, phosphomimetic (IRF7, Homo sapiens, UniProt Q92985, residues 1-503, S471D/S472D/S475D/S476D/S477D/S483D/S484D/S487D)
Sequence of UniProt Q92985 (whole entry, unmodified, looked up): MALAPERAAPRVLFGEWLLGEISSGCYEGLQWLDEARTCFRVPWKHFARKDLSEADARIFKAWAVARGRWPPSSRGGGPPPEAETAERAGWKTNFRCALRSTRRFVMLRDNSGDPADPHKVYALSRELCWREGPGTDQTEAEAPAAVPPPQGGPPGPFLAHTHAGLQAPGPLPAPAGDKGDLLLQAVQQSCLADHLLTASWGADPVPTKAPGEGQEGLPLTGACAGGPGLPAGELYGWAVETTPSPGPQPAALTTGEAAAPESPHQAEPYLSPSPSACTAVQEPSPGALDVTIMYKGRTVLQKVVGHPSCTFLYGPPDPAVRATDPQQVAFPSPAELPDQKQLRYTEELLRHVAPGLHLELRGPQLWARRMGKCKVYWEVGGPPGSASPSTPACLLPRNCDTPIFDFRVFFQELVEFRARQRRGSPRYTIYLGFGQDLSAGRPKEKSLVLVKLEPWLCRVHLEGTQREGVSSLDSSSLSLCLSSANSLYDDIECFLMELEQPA
Sequence | fitted relative affinity [z-score]
TTAGGCCTGGGTTTCGGTTAGTGCTAG | 3.74
TGTTTTTGCTTTCTTTATGCGTGCTAG | 4.9
TTAGGCATCGACACTGGGTTAGTGCTA | -0.784
TTAGGACTGGGTATCGGTCAGTGCTAG | -0.422
GACGGACTGGACACTGGGGGCGTGCTA | -0.391
GACGGTTCCGGTCTCGGGACGTGCTAG | 0.689
GACGATATCGGAACTGGAGACGTGCTA | -0.0574
TCACCAATGGTCTTTCCAACTGTGCTA | 0.935

Series 2 — technique: protein binding microarray; molecule type: double-stranded DNA, one strand shown; sample: in vitro; tested at: not given; relative to: not given; direction: higher = stronger binding
Target: Histone acetyltransferase KAT6A, winged helix 2, GST fusion (KAT6A, Homo sapiens, UniProt Q92794, residues 85-181)
Setting: 8-mer, flanks averaged, mean of 2 arrays, mostly near background
Residues (chain): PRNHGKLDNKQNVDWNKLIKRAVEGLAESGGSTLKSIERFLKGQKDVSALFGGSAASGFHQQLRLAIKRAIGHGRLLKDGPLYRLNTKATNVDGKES
Sequence | E-score
AACTATTA | -0.0708
ACCTCAAA | 0.0534
CAGTGAGG | 0.0312
AATAAGAC | -0.143
CGGGCATA | -0.00222
AAGAAATG | 0.0784
AGGCAGCG | -0.0451
AACCAGTT | 0.145

Series 3 — target: CCND1, cyclin fold, Cln2 fusion (human); technique: yeast growth competition, sequencing; sample: yeast; setting: weak parent motif; relative to: not given; direction: higher = stronger binding
Parent: viral docking peptide; TSVRRALFTGGSD; partner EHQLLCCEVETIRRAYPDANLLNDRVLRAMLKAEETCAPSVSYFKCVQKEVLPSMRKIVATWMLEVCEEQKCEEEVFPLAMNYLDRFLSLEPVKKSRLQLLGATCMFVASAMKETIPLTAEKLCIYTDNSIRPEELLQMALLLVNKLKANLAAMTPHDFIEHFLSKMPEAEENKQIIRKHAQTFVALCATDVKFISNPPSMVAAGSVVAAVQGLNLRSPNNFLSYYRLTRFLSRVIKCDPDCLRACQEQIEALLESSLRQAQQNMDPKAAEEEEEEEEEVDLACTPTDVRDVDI
Change | normalised enrichment score
TSVRRALFTKGSD [G10K] | 0.275
TSVRCALFTGGSD [R5C] | 0.19
TMVRRALFTGGSD [S2M] | 0.449
TSVRRHLFTGGSD [A6H] | 0.594
TSVRRALFTGASD [G11A] | 0.529
TSVRRALFTGGHD [S12H] | 0.316
TSVDRALFTGGSD [R4D] | -0.033
TSVRRALLTGGSD [F8L] | 0.147
TSVRRALFTGGMD [S12M] | 0.217
TSVRRALFTGGLD [S12L] | 0.117
TSMRRALFTGGSD [V3M] | 0.111
TSVRRALNTGGSD [F8N] | 0.0326
TIVRRALFTGGSD [S2I] | 0.0648
TSVRRALFTGGID [S12I] | 0.518
TSVRRGLFTGGSD [A6G] | 0.261
TSVSRALFTGGSD [R4S] | 0.791
TSFRRALFTGGSD [V3F] | 0.153
TSVRLALFTGGSD [R5L] | -0.108
TSVRKALLTGGSD [R5K F8L] | 0.262
TSVREALFTGGSD [R5E] | 0.133
TSVRFALFTGGSD [R5F] | 0.0332
TSVRRALFYGGSD [T9Y] | 0.706
TSVRRALFNGGSD [T9N] | 0.369
TSVRRALFTGYSD [G11Y] | 0.000192
TSVRIALFTGGSD [R5I] | 0.359

Series 4 — target: tungstate, free oxyanion; technique: microfluidic competitive inhibition; sample: in vitro, cell-free expressed; tested at: not given; direction: lower = stronger binding
Setting: derived from inhibition constants, unchanged parent 2230 nM
Parent: PafA, mature enzyme, eGFP fusion (Elizabethkingia meningoseptica, UniProt Q9KJX5); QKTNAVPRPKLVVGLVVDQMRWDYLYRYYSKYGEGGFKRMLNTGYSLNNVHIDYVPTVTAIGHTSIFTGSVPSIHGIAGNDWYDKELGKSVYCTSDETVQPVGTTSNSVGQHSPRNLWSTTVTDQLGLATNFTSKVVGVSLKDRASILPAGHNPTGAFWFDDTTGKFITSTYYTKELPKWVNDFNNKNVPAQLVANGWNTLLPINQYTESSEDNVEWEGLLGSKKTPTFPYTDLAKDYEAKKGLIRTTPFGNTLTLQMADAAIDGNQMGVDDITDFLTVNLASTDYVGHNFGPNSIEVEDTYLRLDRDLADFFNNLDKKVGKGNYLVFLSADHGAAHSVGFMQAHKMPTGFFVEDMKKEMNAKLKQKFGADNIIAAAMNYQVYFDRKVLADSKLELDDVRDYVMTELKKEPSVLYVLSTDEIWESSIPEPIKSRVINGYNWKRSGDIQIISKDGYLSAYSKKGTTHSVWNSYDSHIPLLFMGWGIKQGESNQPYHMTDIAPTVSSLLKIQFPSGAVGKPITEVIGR
Change | oxyanion analog dissociation constant
A191G | 1.8 µM
C93G | 3.64 µM
S146V | 1.09 µM
G127V | 2.39 µM

Series 5 — target: CREB3, bZIP domain (human); technique: DHFR protein complementation; sample: yeast; relative to: wild-type JUN-FOS pair; direction: higher = stronger binding
Setting: single substitutions, most at no-binding floor
Parent: JUN, bZIP domain (human); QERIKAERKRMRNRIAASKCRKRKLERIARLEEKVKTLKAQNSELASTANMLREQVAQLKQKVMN; partner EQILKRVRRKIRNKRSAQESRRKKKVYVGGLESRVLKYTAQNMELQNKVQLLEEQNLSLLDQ
Change | binding fitness [natural log]
A49L | -1.33
E32L | -1.47
E33R | -1.44
E33S | -1.48
V56Q | -1.52
L52A | -1.52
I28W | -1.52
A49P | -1.48

A few entries again (series 3):
Change | normalised enrichment score
TSVRLALFTGGSD [R5L] | -0.108
TSVRRALFTKGSD [G10K] | 0.275
TSVRRGLFTGGSD [A6G] | 0.261
TSVRIALFTGGSD [R5I] | 0.359
TSVRRALLTGGSD [F8L] | 0.147
TSVRRALFTGYSD [G11Y] | 0.000192
TSVREALFTGGSD [R5E] | 0.133
